Measurements gathered from unrelated publications.
Protocols differ between the studies behind these lines. “And” joins repeats or separate records; there may be more than shown. Numbers after ± are the reported error.
TDP1: Tyrosyl-DNA phosphodiesterase 1 (TDP1, Homo sapiens, UniProt Q9NUW8)
UniProt Q9NUW8, sequence (whole entry, looked up): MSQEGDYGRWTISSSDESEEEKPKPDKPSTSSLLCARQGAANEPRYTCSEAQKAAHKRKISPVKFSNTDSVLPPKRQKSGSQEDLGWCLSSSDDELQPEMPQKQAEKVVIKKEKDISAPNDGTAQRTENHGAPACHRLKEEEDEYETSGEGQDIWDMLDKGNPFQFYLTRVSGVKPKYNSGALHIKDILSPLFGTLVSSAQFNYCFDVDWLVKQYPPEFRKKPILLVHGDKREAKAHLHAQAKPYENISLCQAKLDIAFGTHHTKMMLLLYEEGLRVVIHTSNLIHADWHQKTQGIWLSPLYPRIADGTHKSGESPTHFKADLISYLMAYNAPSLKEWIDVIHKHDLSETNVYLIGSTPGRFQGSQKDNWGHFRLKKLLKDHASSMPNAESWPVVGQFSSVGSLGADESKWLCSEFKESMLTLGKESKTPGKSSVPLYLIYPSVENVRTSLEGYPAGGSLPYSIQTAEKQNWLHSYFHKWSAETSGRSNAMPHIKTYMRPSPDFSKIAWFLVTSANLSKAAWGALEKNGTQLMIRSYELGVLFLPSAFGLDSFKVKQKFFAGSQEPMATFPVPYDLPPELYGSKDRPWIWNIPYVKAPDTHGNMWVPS

`CC(C)Cc1ccc(C(C)C(=O)[Se]CC(=O)Nc2cccc(C(F)(F)F)c2)cc1` (stereo not drawn) has a mean TGI of 4.96 µM (NCI60 melanoma subpanel; total growth inhibition, inhibitor; five-dose).
The colony survival of `CO[C@@H]1[C@@H](OC(N)=O)[C@@H](O)[C@H](Oc2ccc3c(O)c(NC(=O)c4ccc(O)c(CC=C(C)C)c4)c(=O)oc3c2C)OC1(C)C` is reported as 0.119% (DLD-1 parental; 150 µM; baseline: untreated).
With `COCCCCCNc1nc(NCCCCCCN(C)C)c2cc(NC(=O)/C=C/CN(C)C)ccc2n1` the viability was 1.08 and 1.01 and 0.818 (MCF7; CellTiter-Glo; 0.3906 µM, 72 h, unit not given; baseline: DMSO-treated cells).
For `C=CC(=O)Nc1cc(Nc2nccc(-c3c(-c4ccc5ncccc5c4)n(C)c4ccccc34)n2)c(OC)cc1N(C)CCN(C)C`, the inhibition was -6.62% (NCI-H1975; cell growth or viability, MTT; 0.5 µM, 72 h).
For `O=C(C[Se]C(=O)c1ccccc1Nc1ccccc1)Nc1cccc(C(F)(F)F)c1`, the mean TGI was 3.54 µM (NCI60 CNS subpanel; NCI60 five-dose screen).
`COc1cc(N(C)CCN(C)C)c(NC(=O)/C=C/c2cccc(F)c2)cc1Nc1nccc(-c2cn(C)c3ccccc23)n1` has an inhibition of 68.3% (NCI-H1975; cell growth or viability, MTT; 0.5 µM, 72 h).
`CCN(CC)CC(=O)Nc1cccc(-n2cc(-c3ccc4ccc(-c5cn(-c6cccc(NC(=O)CN(CC)CC)c6)nn5)cc4c3)nn2)c1` gave a fold regulation of -1.33 (RCC4; PCR angiogenesis array, refers to: ITGAV; 5 x IC50, 6 h, normoxia; baseline: untreated).
With `O=C(C[Se]C(=O)c1ccc2ccccc2n1)Nc1cccc(C(F)(F)F)c1` the mean TGI was 4.57 µM (NCI60 leukaemia subpanel; NCI60 five-dose screen).
`COc1cc(N(C)CCN(C)C)c(NC(=O)/C=C/c2ccc(S(C)(=O)=O)cc2)cc1Nc1nccc(-c2cn(C)c3ccccc23)n1` gave an inhibition of 64.3% (NCI-H1975; cell growth or viability, MTT; 0.5 µM, 72 h).
`CNS(=O)(=O)Nc1nccc(Cc2c(C)c3ccc(Oc4ncccc4F)cc3oc2=O)c1F` has an IC50 of greater than 1 µM (HEC-1-A; cell viability; 7 days).
The inhibition of `O=C(O)c1ccc(Nc2c(-c3ccccc3)nc3ccc(CON=Cc4ccc(OCC(=O)N5CCNC5=O)cc4)cn23)cc1` is reported as 113% (TDP1; enzyme activity, inhibitor; 100 µM, unpurified compound).
`CN(C)c1ccc(-n2cc(COC(=O)[C@@]3(C)C=C(C(=O)OC(C)(C)C)C(=O)CC3)nn2)cc1` has a pRSK/tubulin ratio of 0.238 (HeLa; quantitative western blot; concentration not given, 7 (unit not given), added: EGF).
`CCOC(=O)c1ccc(-n2c(N)c(C#N)c(SC)c(C#N)c2=O)cc1` has a viability of 100% (HepG2; cell growth or viability, MTT; 1.56 µM, 24 h).
`CC(C)c1ccc(N(C)c2ccc3c(c2)OCC[C@H]3CNc2cnccc2C(=O)O)cc1` has an IC50 of no less than 10 µM (SNU-886; cell growth or viability, ATP luminescence; 7 days).
The IC50 of `O=C(NC1CCCC1)c1ccnc(N2Cc3cn(Cc4ccc(F)cc4)nc3C2)n1` is reported as 0.024 µM (HEK293 expressing GluA1 and GluA2; glutamate excitotoxic cell death, CellTox Green; added: glutamate).
For `O=C(C[Se]C(=O)c1cc2ccccc2s1)Nc1cccc(C(F)(F)F)c1`, the GI50 was 1.41 µM (NCI60 melanoma subpanel; cell growth, inhibitor; five-dose).
`COc1ccccc1-c1ccncc1C(=O)Nc1ccc(OCc2ccc(Cl)cc2)nn1` has a colony survival of 98.2% (DLD-1 parental (BRCA2 WT); 10 µM, average of 3 runs; baseline: untreated).
`C=CC(=O)Nc1cc(Nc2nccc(-c3c(-c4cccc(C)c4)n(C)c4ccccc34)n2)c(OC)cc1N(C)CCN(C)C` has an inhibition of 42.2% (NCI-H1975; cell growth or viability, MTT; 0.5 µM, 72 h).
`COC(=O)C1=C(C)Oc2ccc(Br)cc2C1C(C(C)=O)C(=O)OC` (stereo not drawn) gave a lipid content of 0.721 OD492 and 0.797 OD492 and 0.695 OD492 (3T3-L1 preadipocytes; adipogenesis, Oil Red O staining; IC20, 14 days, single replicate).
`O=C(N1CCCC1)n1cc(-c2ccc(-c3ccccc3)cc2)nn1` has an SILAC ratio of 1.26 (mouse T cells; N-terminal labelling proteomics, refers to: CCDC97 N-terminal peptides; 0.001 µM, 6 h; baseline: DMSO).
`Cc1ncsc1-c1ccc(C(C)NC(=O)C2CC(O)CN2C(=O)C(NC(=O)CCCCCCCCCCN2CCCC(Nc3ncc(Cl)c(Nc4ccccc4S(=O)(=O)C(C)C)n3)C2)C(C)(C)C)cc1` (stereo not drawn) — result for “log2 fold change”: -2.49 (22Rv1; RNA-seq, refers to: SPRED3 mRNA; concentration not given; baseline: DMSO).
`CCCC[N+]1=c2cc3c4cc2[O][Mn-2]1(=[C]=O)(=[C]=O)(=[C]=O)[n+]1ccc(cc1)C(=O)Oc1ccccc1OC(=O)c1cc[n+](cc1)[Mn-2](=[C]=O)(=[C]=O)(=[C]=O)([O]3)[N+]=4CCCC` has a viability reduction of 83% (HCT-15; MTT; 50 µM, 48 h, photolysed compound).
Under “protein level log2 fold change”, `Cc1ncsc1-c1ccc([C@H](C)NC(=O)[C@@H]2C[C@@H](O)CN2C(=O)[C@@H](NC(=O)[C@H]2C[C@H](C(=O)N3CCC(c4cc(Nc5cc(C#N)ccn5)nc(N5CCC(F)(F)C5)c4)CC3)C2)C(C)(C)C)cc1` is recorded as 0.0147 (CAL-33 with inducible wild-type LZK; MS proteomics, refers to: FILIP1L; 500 nM, 24 h, added: doxycycline; baseline: DMSO).
For `COC1CN([C@H]2CC[C@H]([C@@]3(C)Oc4c(Cl)cc(C(=O)NCc5c(SC)cc(C)[nH]c5=O)c(C)c4O3)CC2)C1`, “log2 fold change” read 6.59 (RNA-seq, refers to: PRG2; human, whole blood; dose not given, 24 h; baseline: pretreatment baseline).
`C=CC(=O)Nc1cc(Nc2nccc(-c3c(-c4ccc(OC)cc4)n(C)c4ccccc34)n2)c(OC)cc1N(C)CCN(C)C` has an inhibition of 59.9% (NCI-H1975; cell growth or viability, MTT; 0.5 µM, 72 h).
`CN1CCCNC(=O)c2cccc(c2)C(=O)NCCCN(C)CCCNc2cccc3c2C(=O)c2cccc(c2C3=O)NCCC1`: “log2 fold change” -4.52 (SAS; RNA-seq, refers to: MT-ND3 mRNA; 5 µM, 24 h; baseline: untreated cells).
`O=C(C[Se]C(=O)c1cccnc1Nc1cccc(C(F)(F)F)c1)Nc1cccc(C(F)(F)F)c1` has a mean TGI of 3.37 µM (NCI60 melanoma subpanel; total growth inhibition, inhibitor; five-dose).
The IC50 of `CN(C)C(=O)c1ccnc(N2Cc3cn(Cc4cc(F)cc(F)c4)nc3C2)n1` is reported as 0.024 µM (HEK293 expressing GluA1 and GluA2; glutamate excitotoxic cell death, CellTox Green; added: glutamate).
Under “fold change in expression”, `Cn1ncc2cc(-c3cncc(Cl)c3N3CCC4(CCNC4=O)CC3)ccc21` is recorded as 1.14 (LS174T; microarray, refers to: AGT; concentration not given, 4 h; baseline: untreated cells).
`CCC(=CCc1c(O)cc2c(c1O)C(=O)CC(c1ccc(O)cc1)O2)CC` (stereo not drawn) — result for “early apoptotic cells”: 0.29 ± 0.02% (HeLa; annexin V/PI; 24 µM, 48 h).
`COC(=O)c1cc(NC2=NC(=O)C(=Cc3ccc(C)cc3)S2)ccc1OC(C)=O` has a metabolite level of 0.08 fold change (MCF7; GC-MS, refers to: Citric acid; 1 µM; baseline: DMSO).
`O=C(C[Se]C(=O)c1cc2ccccc2[nH]1)Nc1cccc(C(F)(F)F)c1`: “mean growth percent” -90.6% (NCI60 CNS subpanel; cell growth; 10 µM, 48 h, one-dose).
For `Cc1ccc(C(=O)/C=C/c2ccccc2)s1`, the growth inhibition was less than 0% (HOP-62; SRB; 10 µM).
The inhibition of `C=CC(=O)Nc1cc(Nc2nccc(-c3c(-c4ccc5ccccc5c4)n(C)c4ccccc34)n2)c(OC)cc1N(C)CCN(C)C` is reported as 72.7% (NCI-H1975; cell growth or viability, MTT; 0.5 µM, 72 h).
`NC(=O)c1ccc(-c2ccccc2Cl)c2c3c([nH]c12)CCC(N)C3` (stereo not drawn) has an IC50 of 0.0199 µM (MCF7/PTX, paclitaxel-resistant; cell growth, CellTiter-Glo; 96 h).
`CCCCCCc1cccc(C(O)CC(CO)NC(=O)CCCCCCCCCCNC(C)=O)c1` (stereo not drawn): “total ceramide level” 54700 pmol/sample and 61700 pmol/sample and 52100 pmol/sample (HeLa; CERT activity, HPLC-MS/MS lipidomics; 1 µM, 24 h, not cell-number normalised).
`O=C(Nc1nnc2c1c(-c1ccc(Cl)cc1)nc1sc(=Cc3ccco3)c(=O)n12)c1ccccc1` (mixture of isomers) has a cell growth of 57.2% (HOP-92; SRB; 10 µM, NCI60 single-dose screen; baseline: untreated).
The inhibition of `Cc1nn2c(C(F)(F)F)ccnc2c1C=NOCc1ccc2nc(-c3ccccc3)c(Nc3ccc(C(=O)O)cc3)n2c1` (mixture of isomers) is reported as -28.5% (TDP1; enzyme activity, inhibitor; 100 µM, unpurified compound).
`CCc1n(CC(=O)O[C@@H]2C[C@H](C)CC[C@H]2C(C)C)c2ccccc2[n+]1C` gave a mRNA level of 3.8 (HTS cells (mouse); gene microarray, refers to: COX6A2; 1 µM, 12 h, unit not given; baseline: untreated).
With `COC(=O)C1=C(C)Oc2cc(OC)ccc2C1C(C(C)=O)C(=O)OC` (stereo not drawn) the lipid content was 0.716 OD492 (3T3-L1 preadipocytes; adipogenesis, Oil Red O staining; IC20, 14 days, single replicate).
For `C=C(NC(=O)c1csc(-c2cccnc2)n1)C(=O)NC(=C)C(=O)OC`, the EC50 was 34 µM (H-MESO-1; cell viability, crystal violet; 3 h exposure, 48 h total).
`CC(=O)Oc1ccccc1C(=O)[Se]CC(=O)Nc1cccc(C(F)(F)F)c1` has a GI50 of 4.27 µM (NCI60 leukaemia subpanel; NCI60 five-dose screen).
For `COc1ccc(NC(=O)c2ccc3[nH]c(-c4ccc(N(C)C)cc4)nc3c2)cn1`, “dead cell to confluence ratio” read 4.97 and 2.09 and 2.28 (HCEC-hTERT; IncuCyte; concentration not given, 4 h).
The GI50 of `COc1ccc2c(c1)c(CC(=O)[Se]CC(=O)Nc1cccc(C(F)(F)F)c1)c(C)n2C(=O)c1ccc(Cl)cc1` is reported as 2.02 µM (NCI60 leukaemia subpanel; NCI60 five-dose screen).
With `CCCC(CCC)C(=O)OCc1cn(-c2cc3ccccc3oc2=O)nn1` the growth percentage was 90.2% (HOP-92; NCI60 single-dose screen; 10 µM).

A few entries again:
`CC(C)c1ccc(N(C)c2ccc3c(c2)OCC[C@H]3CNc2cnccc2C(=O)O)cc1` has an IC50 of no less than 10 µM (SNU-886; cell growth or viability, ATP luminescence; 7 days).
Under “fold change in expression”, `Cn1ncc2cc(-c3cncc(Cl)c3N3CCC4(CCNC4=O)CC3)ccc21` is recorded as 1.14 (LS174T; microarray, refers to: AGT; concentration not given, 4 h; baseline: untreated cells).
`CN1CCCNC(=O)c2cccc(c2)C(=O)NCCCN(C)CCCNc2cccc3c2C(=O)c2cccc(c2C3=O)NCCC1`: “log2 fold change” -4.52 (SAS; RNA-seq, refers to: MT-ND3 mRNA; 5 µM, 24 h; baseline: untreated cells).
The IC50 of `O=C(NC1CCCC1)c1ccnc(N2Cc3cn(Cc4ccc(F)cc4)nc3C2)n1` is reported as 0.024 µM (HEK293 expressing GluA1 and GluA2; glutamate excitotoxic cell death, CellTox Green; added: glutamate).
With `O=C(C[Se]C(=O)c1ccc2ccccc2n1)Nc1cccc(C(F)(F)F)c1` the mean TGI was 4.57 µM (NCI60 leukaemia subpanel; NCI60 five-dose screen).
`CCC(=CCc1c(O)cc2c(c1O)C(=O)CC(c1ccc(O)cc1)O2)CC` (stereo not drawn) — result for “early apoptotic cells”: 0.29 ± 0.02% (HeLa; annexin V/PI; 24 µM, 48 h).
`O=C(N1CCCC1)n1cc(-c2ccc(-c3ccccc3)cc2)nn1` has an SILAC ratio of 1.26 (mouse T cells; N-terminal labelling proteomics, refers to: CCDC97 N-terminal peptides; 0.001 µM, 6 h; baseline: DMSO).
